Results pooled from the literature.
mcmA: mcmA (Methylobacterium extorquens, UniProt C5AV67)
T1: Ffh/4.5S SRP RNA (Escherichia coli); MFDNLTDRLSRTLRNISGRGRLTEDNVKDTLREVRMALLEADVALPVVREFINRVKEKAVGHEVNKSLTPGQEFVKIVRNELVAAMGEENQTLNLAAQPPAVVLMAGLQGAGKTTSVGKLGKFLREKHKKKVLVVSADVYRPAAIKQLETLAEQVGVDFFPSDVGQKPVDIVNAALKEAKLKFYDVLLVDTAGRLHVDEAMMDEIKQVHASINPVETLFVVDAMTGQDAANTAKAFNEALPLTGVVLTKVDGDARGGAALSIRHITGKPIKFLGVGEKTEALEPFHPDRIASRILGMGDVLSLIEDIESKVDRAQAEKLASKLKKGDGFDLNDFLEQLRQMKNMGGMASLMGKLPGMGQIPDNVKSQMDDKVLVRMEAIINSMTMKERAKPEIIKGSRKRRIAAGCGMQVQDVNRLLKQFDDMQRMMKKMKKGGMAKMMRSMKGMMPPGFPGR
B1: HNRNPH1 192-280 (Homo sapiens, UniProt P31943); chain RTHYDPPRKLMAMQRPGPYDRPGAGRGYNSIGRGAGFERMRRGAYGGGYGGYDDYNGYNDGYGFGSDRFGRDLNYCFSGMSDHRYGDGG
B2: fliQ (Salmonella enterica, UniProt P0A1L5); sequence looked up; chain MTPESVMMMGTEAMKVALALAAPLLLVALITGLIISILQAATQINEMTLSFIPKIVAVFIAIIVAGPWMLNLLLDYVRTLFSNLPYIIG
B3: protein 1-329 K188E (Methylobacterium extorquens, UniProt C5AP93); chain MSATLPDMDTLRERLLAGDRAALARAITLAESRRADHRAAVRDLIDAVLPQTGRAIRVGITGVPGVGKSTTIDALGSLLTAAGHKVAVLAVDPSSTRTGGSILGDKTRMARLAIDRNAFIRPSPSSGTLGGVAAKTRETMLLCEAAGFDVILVETVGVGQSETAVADLTDFFLVLMLPGAGDELQGIEKGILELADMIAVNKADDGDGERRASAAASEYRAALHILTPPSATWTPPVVTISGLHGKGLDSLWSRIEDHRSKLTATGEIAGKRREQDVKWMWALVHERLHQRLVGSAEVRQATAEAERAVAGGEHSPAAGADAIATLIGL
B4: FBLN5 247-333 (Homo sapiens, UniProt Q9UBX5); chain DMDECSFSEFLCQHECVNQPGTYFCSCPPGYILLDDNRSCQDINECEHRNHTCNLQQTCYNLQGGFKCIDPIRCEEPYLRISDNRCM
B5: sseK2 (Salmonella enterica, UniProt Q8ZNP4); chain MARFNAAFTRIKIMFSRIRGLISCQSNTQTIAPTLSPPSSGHVSFAGIDYPLLPLNHQTPLVFQWFERNPDRFGQNEIPIINTQKNPYLNNIINAAIIEKERIIGIFVDGDFSKGQRKALGKLEQNYRNIKVIYNSDLNYSMYDKKLTTIYLENITKLEAQSASERDEVLLNGVKKSLEDVLKNNPEETLISSHNKDKGHLWFDFYRNLFLLKGSDAFLEAGKPGCHHLQPGGGCIYLDADMLLTDKLGTLYLPDGIAIHVSRKDNHVSLENGIIAVNRSEHPALIKGLEIMHSKPYGDPYNDWLSKGLRHYFDGSHIQDYDAFCDFIEFKHENIIMNTSSLTASSWR
B6: TERF2IP (Homo sapiens, UniProt Q9NYB0); sequence looked up; chain MAEAMDLGKDPNGPTHSSTLFVRDDGSSMSFYVRPSPAKRRLSTLILHGGGTVCRVQEPGAVLLAQPGEALAEASGDFISTQYILDCVERNERLELEAYRLGPASAADTGSEAKPGALAEGAAEPEPQRHAGRIAFTDADDVAILTYVKENARSPSSVTGNALWKAMEKSSLTQHSWQSLKDRYLKHLRGQEHKYLLGDAPVSPSSQKLKRKAEEDPEAADSGEPQNKRTPDLPEEEYVKEEIQENEEAVKKMLVEATREFEEVVVDESPPDFEIHITMCDDDPPTPEEDSETQPDEEEEEEEEKVSQPEVGAAIKIIRQLMEKFNLDLSTVTQAFLKNSGELEATSAFLASGQRADGYPIWSRQDDIDLQKDDEDTREALVKKFGAQNVARRIEFRKK
B7: CyaY 1-106 (Escherichia coli, UniProt P27838); chain MNDSEFHRLADQLWLTIEERLDDWDGDSDIDCEINGGVLTITFENGSKIIINRQEPLHQVWLATKQGGYHFDLKGDEWICDRSGETFWDLLEQAATQQAGETVSFR
B8: bfd 1-73 C43S (Pseudomonas aeruginosa, UniProt Q9HY80); chain MYVCLCQGVTDNQIRDAIYEGCCSYREVREATGVGTQCGKCASLAKQVVRETLNDLQSAQPVPAFGTTAFVAA
B9: ftsY 47-497 E475K (Escherichia coli, UniProt P10121); chain ASEQAVEEQPQAHTEAEAETFAADVVEVTEQVAESEKAQPEAEVVAQPEPVVEETPEPVAIEREELPLPEDVNAEAVSPEEWQAEAETVEIVEAAEEEAAKEEITDEELETALAAEAAEEAVMVVPPAEEEQPVEEIAQEQEKPTKEGFFARLKRSLLKTKENLGSGFISLFRGKKIDDDLFEELEEQLLIADVGVETTRKIITNLTEGASRKQLRDAEALYGLLKEEMGEILAKVDEPLNVEGKAPFVILMVGVNGVGKTTTIGKLARQFEQQGKSVMLAAGDTFRAAAVEQLQVWGQRNNIPVIAQHTGADSASVIFDAIQAAKARNIDVLIADTAGRLQNKSHLMEELKKIVRVMKKLDVEAPHEVMLTIDASTGQNAVSQAKLFHEAVGLTGITLTKLDGTAKGGVIFSVADQFGIPIRYIGVGKRIEDLRPFKADDFIEALFARED
B10: Lef1 114-397 (Mus musculus, UniProt P27782); sequence looked up; chain MMPNMNSDPYMSNGSLSPPIPRTSNKVPVVQPSHAVHPLTPLITYSDEHFSPGSHPSHIPSDVNSKQGMSRHPPAPEIPTFYPLSPGGVGQITPPIGWQGQPVYPITGGFRQPYPSSLSGDTSMSRFSHHMIPGPPGPHTTGIPHPAIVTPQVKQEHPHTDSDLMHVKPQHEQRKEQEPKRPHIKKPLNAFMLYMKEMRANVVAECTLKESAAINQILGRRWHALSREEQAKYYELARKERQLHMQLYPGWSARDNYGKKKKRKREKLQESTSGTGPRMTAAYI
B11: RPS21 mature (Spinacia oleracea, UniProt P82024); sequence looked up; chain FRSAYNVQVLVDDNENEERLLNRFRREVMRAGVIQECKRRRYFENKQEEKKRKHREAAKRNSRRRRGPFRGPFPGKEEATKVDKKEDDGDNWDMPEGGAPF
B12: rnj HA-tagged (Mycolicibacterium smegmatis, UniProt A0QVT2); chain MSAELAPPPPLAPGGLRVTALGGISEIGRNMTVFEHLGRLLIVDCGVLFPGHDEPGVDLILPDLRHIEDRLDEIEALVVTHAHEDHIGAIPFLLKLRPDIPVVGSKFTIALVREKCREHRLKPKFVEVAERQSSQHGVFECEYFAVNHSIPGCLAVAIHTGAGTVLHTGDIKLDQLPLDGRPTDLPGMSRLGDAGVDLFLCDSTNSEHPGVSPSESEVGPTLHRLIRGAEGRVIVACFASNVDRVQQIIDAAVALGRRVSFVGRSMVRNMGIARELGYLKVDDSDILDIAAAEMMPPDRVVLITTGTQGEPMAALSRMSRGEHRSITLTSGDLIILSSSLIPGNEEAVYGVIDSLSKIGARVVTNAQARVHVSGHAYAGELLFLYNGVRPRNVMPVHGTWRHLRANAALAASTGVPPENIVLAENGVSVDLVAGRASISGAVTVGKMFVDGLITGDVGDATLGERLILSSGFVSITVVVHRGTGRPAGPAHLISRGFSEDPKALEPVAQKVERELEALAADNVTDPTRIAQAVRRTVGKWVGETYRRQPMIVPTVIEI
B13: protein 1-329 Q185A (Methylobacterium extorquens, UniProt C5AP93); chain MSATLPDMDTLRERLLAGDRAALARAITLAESRRADHRAAVRDLIDAVLPQTGRAIRVGITGVPGVGKSTTIDALGSLLTAAGHKVAVLAVDPSSTRTGGSILGDKTRMARLAIDRNAFIRPSPSSGTLGGVAAKTRETMLLCEAAGFDVILVETVGVGQSETAVADLTDFFLVLMLPGAGDELAGIKKGILELADMIAVNKADDGDGERRASAAASEYRAALHILTPPSATWTPPVVTISGLHGKGLDSLWSRIEDHRSKLTATGEIAGKRREQDVKWMWALVHERLHQRLVGSAEVRQATAEAERAVAGGEHSPAAGADAIATLIGL

Substance | partner | assay | test system | setting | how to read | quantity | value
TBK1 fragment L8A (Homo sapiens) | STING1 (Homo sapiens, UniProt Q86WV6) | IFN-β luciferase reporter | TBK1 KO HEK293T | added: cGAMP | relative to: wild-type TBK1, higher = more reduction | reduction of IFN-β reporter | > 60%
B1 (HNRNPH1 192-280) | TAF15 2-208 (Homo sapiens, UniProt Q92804) | trapping in hydrogel, hydrogel binding |  | pH 7.5, 4 °C, NaCl 200 mM |  | binding | binds
ALDOA (Oryctolagus cuniculus, UniProt P00883) | TRAP C-terminal cytoplasmic tail (Plasmodium falciparum) | SPR |  | two-state model |  | kd2 | 0.000512 s⁻¹
B2 (fliQ) | fliR (Salmonella enterica, UniProt P54702) | cryo-EM |  |  |  | molecule per partner | 4
isdB fragment Y167D (Staphylococcus aureus) | HBA1/HBB methemoglobin (Homo sapiens) | heme transfer from methemoglobin |  |  |  | heme transfer rate constant | 0.062 s⁻¹
THBS1 (Homo sapiens, UniProt P07996) | env gp160 (HIV-1) | viral infection, inhibitor, p24 ELISA | SK23 |  | relative to: untreated infection, higher = more inhibition | infection inhibition | > 90.7%
topoisomerase I large subunit (Leishmania donovani) | TOP1 636-765, fluorescein label (Homo sapiens, UniProt P11387) | supercoiled DNA relaxation |  | non-turnover |  | time of relaxed intermediate appearance | 30 s
candidalysin (Candida albicans) | GP1BA (Homo sapiens, UniProt P07359) | flow cytometry | MEG-01 megakaryocytes, releasates | 15 µM, 1 h, 37 °C, no antibody | relative to: Mk-only control, higher = more platelets | platelet counts | 14000 counts
B3 (protein 1-329 K188E) | mcmA | GTP hydrolysis |  | GAP activity, added: MCM 2-fold |  | kcat | 0.00467 s⁻¹
B4 (FBLN5 247-333) | FBN1 31-489 (Homo sapiens, UniProt P35555) | ELISA |  |  |  | binding | binds
Mos1 transposase R48Q/Q100R/T216A (Drosophila mauritiana) | MOS1 transposase T216A (Drosophila mauritiana) | NTS first strand cleavage |  | 15 nM each | relative to: T216A transposase at 30 nM, higher = more cleavage | relative cleavage activity | 29%
B5 (sseK2) | FADD 97-181 (Homo sapiens, UniProt Q13158) | glycosylation |  | estimated | relative to: NleB1, higher = weaker substrate binding | Km worsening | 95 fold
B6 (TERF2IP) | LMNB1 (Homo sapiens, UniProt P20700) | proximity ligation |  | in cells | relative to: control cells, higher = more interaction | PLA dots increase | 5.1 fold
Epo-Fc Fc fusion, hinge-CH2-CH3, glycosylated (Mus musculus) | Fcgrt heavy chain (Mus musculus, UniProt Q61559) | reticulocyte count, agonist | suckling mice | apparent, intragastric, dose response |  | reticulocyte count | 0.1 µg/animal
N-formyl-Met-Leu-Phe, N-formyl | FPR2 (Homo sapiens, UniProt P25090) | aequorin luminescence, agonist | CHO-K1 |  |  | pEC50 | 5.94 pEC50
HIP-4.18 | HLA-DRA/HLA-DRB1*04:01 (Homo sapiens) | competition with biotinylated peptide, competitor, competition binding assay |  |  |  | IC50 | 1800 nM
B7 (CyaY 1-106) | IscS/IscU 1-404 (Escherichia coli) | SAXS |  |  |  | molecule per partner | 1
Tet1 (Mus musculus) | EPAS1 (Homo sapiens, UniProt Q99814) | co-IP |  | Tet1 overexpressed, in cells | relative to: reference lane, higher = more pVHL bound | relative binding | 1.16 fold
HIP-4.1 | HLA-DRA/HLA-DRB1*04:01 (Homo sapiens) | competition with biotinylated peptide, competitor, competition binding assay |  |  |  | IC50 | 2800 nM
B8 (bfd 1-73 C43S) | bfrB 1-158 (Pseudomonas aeruginosa, UniProt Q9HY79) | Fe2+-bipyridine formation |  | added: NADPH 1 mM |  | iron release rate | 0.099 min⁻¹
B9 (ftsY 47-497 E475K) | T1, Ffh/4.5S SRP RNA (Escherichia coli) | translocation |  |  | relative to: wild-type FtsY, higher = greater reduction | relative translocation efficiency | 2 fold
B10 (Lef1 114-397) | Dlx2 (Mus musculus, UniProt P40764) | Msx2-5820 luciferase | CHO |  | higher = more activation | reporter activation | 33 fold
B11 (RPS21 mature) | PSRP3 mature (Spinacia oleracea, UniProt P82412) | cryo-EM structure |  | native chloroplast 70S ribosome |  | binding | binds
B12 (rnj HA-tagged) | rne 330-1037 D694R/D738R (Mycolicibacterium smegmatis, UniProt A0R152) | co-IP |  |  |  | binding | binds
B13 (protein 1-329 Q185A) | mcmA | GTP hydrolysis |  | GAP activity, added: MCM 2-fold |  | kcat | 0.00283 s⁻¹
IWDYA (F5 residues 332-336 (Homo sapiens)) | F10/F5 factor Xa with factor Va 29-737 (Homo sapiens) | thrombin generation, inhibitor, prothrombinase inhibition assay | peptide | pH 7.4, apparent |  | Ki | 69000 nM
ipaB (Shigella flexneri) | mxiH (Shigella flexneri, UniProt P0A223) | co-purification, Western blot |  | Class IIb ipaD mutants | relative to: complemented strain, higher = more IpaB in needles | relative binding | 130%
RAN (UniProt P62826) | XPO1 (Homo sapiens, UniProt O14980) | RanGAP protection |  | 330 nM, added: NES peptide 200 nM | higher = more protection | Ran:GTP protected | 63%

A few entries again:
Substance | partner | assay | test system | setting | how to read | quantity | value
B2 (fliQ) | fliR (Salmonella enterica, UniProt P54702) | cryo-EM |  |  |  | molecule per partner | 4
isdB fragment Y167D (Staphylococcus aureus) | HBA1/HBB methemoglobin (Homo sapiens) | heme transfer from methemoglobin |  |  |  | heme transfer rate constant | 0.062 s⁻¹
THBS1 (Homo sapiens, UniProt P07996) | env gp160 (HIV-1) | viral infection, inhibitor, p24 ELISA | SK23 |  | relative to: untreated infection, higher = more inhibition | infection inhibition | > 90.7%
